Measured values from different studies.
Numbered parts are unrelated; each lists some results of a single study. Substitutions count along the parent as printed.

Set 1 — method: RNA Bind-n-Seq; molecule type: RNA; matrix: in vitro; concentration: not given; notes: RNA with constant flanks, ends assumed; baseline: input RNA pool; direction: higher = stronger binding
Target: RING finger protein unkempt homolog, zinc fingers 1-6, GST-SBP tag (UNK, Homo sapiens, UniProt Q9C0B0, residues 30-357)
Sequence of UniProt Q9C0B0 (30-357, looked up): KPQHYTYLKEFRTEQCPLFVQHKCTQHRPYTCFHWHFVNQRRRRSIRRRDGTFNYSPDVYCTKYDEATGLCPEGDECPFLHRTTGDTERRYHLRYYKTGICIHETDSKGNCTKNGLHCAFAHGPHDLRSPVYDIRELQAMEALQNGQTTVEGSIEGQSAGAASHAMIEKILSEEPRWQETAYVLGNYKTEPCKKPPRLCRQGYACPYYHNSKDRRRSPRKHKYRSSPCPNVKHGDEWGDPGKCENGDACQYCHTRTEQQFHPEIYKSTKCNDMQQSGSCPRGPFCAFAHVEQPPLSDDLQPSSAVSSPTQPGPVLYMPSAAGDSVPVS
With `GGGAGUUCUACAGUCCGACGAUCGUUGUACCGAAAGGCAAAGGAGAACAGAUUGCAAGGGAGCAUGGUAUUAGGUUUUUUGAGACCCGUGCAAAAGCAAAUAUAAACAUCGAAAAGGCGUUCCUCACAUUAGCUGAAGACAUCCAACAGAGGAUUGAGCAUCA` the bound/input enrichment was 0.65 ratio.
With `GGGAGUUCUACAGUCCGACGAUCACUAAUGCAGUGAUCGCCGGCUUGAUAGUGUUGGAAGGAUUAAAGAUUUUAUCUGGAAAAACCGACCAGUGUAGAACUAUUUUUUUGAAUAAGCAGCCAAACCCAAGAAAGAAGCUCUUGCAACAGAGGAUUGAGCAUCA` the bound/input enrichment was 1.35 ratio.
For `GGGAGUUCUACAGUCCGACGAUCCGAAGUAAGAAAGCAAACCUAGGCAAGAAUGCAAGUGUGAAUGCGCACCAUGGACCAGCACCCGAAGCUGUGGAGACCACUGUGCCCAAGCAAGGACAAAACUUAUGGUUCCUGUGUGACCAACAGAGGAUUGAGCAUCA`, the bound/input enrichment was 0.195 ratio.
`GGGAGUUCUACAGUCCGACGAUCAGAGACUGGGUCACAAACCCUGGGCUUUUCAAUCAGCCACUGACUUCCCUUCCUGUCAGCCGCAUACCCAUCUAUAAAUUACCAGAGGGAUCACCAACAUGGCUGGGAAUAUCCUGCAGUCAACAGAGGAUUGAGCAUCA` has a bound/input enrichment of 0.314 ratio.
With `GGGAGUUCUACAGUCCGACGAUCACCCAUGCUUUUAUGGACACUAGGUAAACACCUUCAGCUUAAAUUUUUCGUUAAAUAUUUCCGUUUAUUUUAUUGUUAUCUUCCAGGUGUCUAAAUCUCCAGUCUGUCUGUUGUACUGGUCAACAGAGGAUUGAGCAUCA` the bound/input enrichment was 0.866 ratio.
`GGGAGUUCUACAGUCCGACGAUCUCUAAGGAAGCACAGAUAAGAGAAACUGAAACGUUUUCAGAUUCAUCUCCAAUUGAAAUUACCGAUGAGUUCCCUACAUUGAUCAGUUCUAAAACUGAUUCAUUUUCUAAAUUAGCCAGGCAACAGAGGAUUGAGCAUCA` has a bound/input enrichment of 0.556 ratio.
With `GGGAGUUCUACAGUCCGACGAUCUCUCCUAGUAGUGAUCUCACACUUUCAAGUGUUCUCUGGGAUAGAGAGAGAUCAAGCUUUUACCGCCUGACGAGUUCAAACAUCAGUAAAUGGGAAUUAGAUGAUUCUUCAGAAAAGCAUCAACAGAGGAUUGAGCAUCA` the bound/input enrichment was 0.333 ratio.
With `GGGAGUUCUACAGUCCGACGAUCUUUCUUUUUCUUUUUCUUUUUAAAAUGUUAAUGCCCGUUGUCUUUCCUGGGCUGUUUGCCCGCGGAAGGAUGCCAGGGAAGCCAGCAGGAGCUAGGAGAGAGUCCGUGGAUCUCGAAAGACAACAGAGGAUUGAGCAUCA` the bound/input enrichment was 0.257 ratio.

Set 2 — method: RNA Bind-n-Seq; molecule type: RNA; matrix: in vitro; concentration: 365 nM; baseline: no-protein control; direction: higher = stronger binding
Target: RNA binding protein fox-1 homolog 2, RRM domain, GST-SBP tag (RBFOX2, Homo sapiens, UniProt O43251-10, residues 100-194)
Notes: natural RNA segment, single round, ends assumed
Residues (chain): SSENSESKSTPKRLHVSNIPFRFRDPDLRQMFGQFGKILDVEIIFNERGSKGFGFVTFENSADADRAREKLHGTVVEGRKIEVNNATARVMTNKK
For `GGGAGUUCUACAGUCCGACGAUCGUGCUUCCUGGGGGUGGGGGAAUGCAGCCACAGUGUCUCCCCCUUCCCUCUUCCACCCCAGCUCCAGCCCUGGUCUUUCUUCCUCUUUCCCAUAACAGAAGCUAUGGCCCUGGAAUUCUCGGGUGCCAA`, “RBNS enrichment (R)” read 0.403.
`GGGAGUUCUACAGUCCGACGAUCUACAAGUUAAAAUAAUUAGAAACUAUGACUGCGCCUAGUAAAGUCAUCUAGGUUUAUAGUUCAGUAGCUUAGGCAAGGCACACACUGCUCAUCUCCGCUUUUUAGGGUCAUGGAAUUCUCGGGUGCCAA`: “RBNS enrichment (R)” 0.553.
Under “RBNS enrichment (R)”, `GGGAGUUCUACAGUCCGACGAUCCUGUCCACGCUUAGGAGCCAAGCCGGGAAUGCAUUAAUCAUUUCUUCGUUAACAGAGGAAUCUGCUCUGCAUGGCAUUUCUCCAAGUGAAGACAGGCUUCUUUUUUUUUUUGGAAUUCUCGGGUGCCAA` is recorded as 0.475.
Under “RBNS enrichment (R)”, `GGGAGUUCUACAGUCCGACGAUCUAGGGCAUAUGCCAAGGAGGUUCUCACCUCCCUAAAGAAGGGACUUGAAUUUUAGGGACUUUAAUUCACCCCUCCUUCAAUACAACUUUCCCCCUUCUUGUUUGCACAUGUGGAAUUCUCGGGUGCCAA` is recorded as 0.336.
For `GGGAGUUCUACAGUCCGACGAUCACCGGGUGGAGGCGGUGGGGACCCAGCCGCGCGCCGGGAGCGCUCCCCGGAAUGAGCCGCCCCACCCACCCCAAGGCUGGAGCCGCUGCACCCUGCUGUCCCUCUCCAGGUGGAAUUCUCGGGUGCCAA`, “RBNS enrichment (R)” read 14.7.
For `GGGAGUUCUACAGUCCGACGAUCCUGAUACCACCUCCACCGCUGAGCAGUGACCUUCCUCACUUUCUCUUGUCCCAGCUUCUCCCCUGGGGGCCUGAGAGACCCUCACCUUCCUUCUGCCCAUCUUCCAUGUUUGGAAUUCUCGGGUGCCAA`, “RBNS enrichment (R)” read 0.594.
`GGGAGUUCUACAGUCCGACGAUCCAGUGUCGGCUAAGGCCUUCCUAGCUCUGGAGGUGACAGGGGAACCUCCAGGUGGAGGAACCACACGGCAGAGUUCUGUGUGUCUGUGUUGAAGCUAGAGGCGGCUAGAGUGGAAUUCUCGGGUGCCAA`: “RBNS enrichment (R)” 0.956.
For `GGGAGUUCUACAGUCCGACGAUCCAGGCCUCCCUGCUGUGCUUUAACACAGGCAGAAGAGGUUCAUGGCAAUAUAAUAGUCAAUGAACUUUCAGUUUAAAUUGUGUACAUUUUUAAAUUGUAAGAUUUUUACUUGGAAUUCUCGGGUGCCAA`, “RBNS enrichment (R)” read 0.429.

Set 3 — method: universal PBM; molecule type: double-stranded DNA, one strand shown; matrix: in vitro; concentration: 600 nM; direction: higher = stronger binding
Target: Sal-like protein 4, full length isoform A (SALL4, Homo sapiens, UniProt Q9UJQ4, residues 1-1053)
Sequence of UniProt Q9UJQ4 (whole entry, looked up): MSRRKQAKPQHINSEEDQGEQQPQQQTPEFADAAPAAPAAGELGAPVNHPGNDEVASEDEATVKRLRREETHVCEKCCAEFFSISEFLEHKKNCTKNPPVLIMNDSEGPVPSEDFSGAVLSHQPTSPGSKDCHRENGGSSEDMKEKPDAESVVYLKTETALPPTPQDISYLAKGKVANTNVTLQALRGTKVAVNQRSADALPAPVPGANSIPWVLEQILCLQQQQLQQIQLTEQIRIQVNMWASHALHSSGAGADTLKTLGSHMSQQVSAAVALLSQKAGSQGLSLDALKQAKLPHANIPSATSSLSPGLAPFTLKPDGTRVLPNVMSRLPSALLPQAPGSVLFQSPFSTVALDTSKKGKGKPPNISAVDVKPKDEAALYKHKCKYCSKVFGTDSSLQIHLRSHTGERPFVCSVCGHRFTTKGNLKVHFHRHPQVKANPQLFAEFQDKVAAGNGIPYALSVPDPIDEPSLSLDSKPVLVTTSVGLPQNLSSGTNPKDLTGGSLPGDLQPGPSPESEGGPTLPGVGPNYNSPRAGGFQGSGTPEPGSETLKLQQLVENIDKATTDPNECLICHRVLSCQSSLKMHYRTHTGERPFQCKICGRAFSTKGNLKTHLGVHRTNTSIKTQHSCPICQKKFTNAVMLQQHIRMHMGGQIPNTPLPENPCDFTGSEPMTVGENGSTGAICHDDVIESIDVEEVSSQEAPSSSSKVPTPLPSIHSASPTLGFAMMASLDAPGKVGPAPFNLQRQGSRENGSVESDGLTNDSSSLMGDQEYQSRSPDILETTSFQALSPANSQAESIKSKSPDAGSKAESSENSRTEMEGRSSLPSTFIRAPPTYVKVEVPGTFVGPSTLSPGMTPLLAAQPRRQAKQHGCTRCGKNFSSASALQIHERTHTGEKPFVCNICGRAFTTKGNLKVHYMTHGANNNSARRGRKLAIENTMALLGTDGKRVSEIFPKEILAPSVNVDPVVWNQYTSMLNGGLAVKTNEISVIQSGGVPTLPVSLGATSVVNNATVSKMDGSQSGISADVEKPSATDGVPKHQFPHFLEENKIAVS
Notes: 8-mer, flanks averaged, mean of replicates
With `AGGGATAA` the E-score was 0.0973.
`ATCCGTAA` has an E-score of -0.0381.
For `CAGGGGAG`, the E-score was -0.249.
`CACATCTA` has an E-score of 0.195.
With `AAGTACCT` the E-score was -0.00558.
The E-score of `TACTTTCA` is reported as 0.235.
With `CACTATTC` the E-score was 0.159.
`ATATTAGC` gave an E-score of 0.32.
The E-score of `ACTCACTC` is reported as -0.0664.
`AAACCCAT` gave an E-score of 0.202.
With `GAGAAGAC` the E-score was -0.07.
With `CTTGATGA` the E-score was 0.13.
For `ATTGCCAA`, the E-score was 0.0573.
For `GTGGTTCA`, the E-score was 0.0482.
The E-score of `AACACTGA` is reported as 0.152.
With `CGGGACCA` the E-score was -0.372.
With `GGCCGACC` the E-score was -0.391.
The E-score of `TTCCTAAA` is reported as 0.229.
`TCCTGACA` has an E-score of 0.0986.
`AAAAAACC` has an E-score of 0.113.
The E-score of `AGTGTAGC` is reported as -0.0533.
`TCTTAACA` has an E-score of 0.174.

Set 4 — target: CCNA1, cyclin fold, Cln2 fusion (human); method: yeast growth competition, sequencing; matrix: yeast; notes: weak parent motif; baseline: not given; direction: higher = stronger binding
Starting sequence: PKN2 docking peptide (human); VSAVQKLDFSDTM; partner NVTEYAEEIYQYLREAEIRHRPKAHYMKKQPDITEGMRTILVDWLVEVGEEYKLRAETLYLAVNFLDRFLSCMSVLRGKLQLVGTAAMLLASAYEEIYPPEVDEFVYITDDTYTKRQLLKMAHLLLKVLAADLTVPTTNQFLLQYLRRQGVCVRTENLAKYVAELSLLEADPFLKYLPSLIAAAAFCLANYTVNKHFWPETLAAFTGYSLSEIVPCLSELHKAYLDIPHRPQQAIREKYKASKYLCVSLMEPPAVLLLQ
`HSAVQKLDFSDTM [V1H]`: “normalised enrichment score” 0.14.
`VRAVQKLDFSDTM [S2R]`: “normalised enrichment score” 0.359.
`VSWVQKLDFSDTM [A3W]` — result for “normalised enrichment score”: 0.178.
Under “normalised enrichment score”, `VSAVQKLDFSDTQ [M13Q]` is recorded as -0.0902.
`VSAVQKLDMSDTM [F9M]` — result for “normalised enrichment score”: 0.295.
For `VSAVQRLDFSDTM [K6R]`, “normalised enrichment score” read 0.115.
Under “normalised enrichment score”, `VSAVQKLTFSDTM [D8T]` is recorded as -0.0394.
`VSACQKLDFSDTM [V4C]` — result for “normalised enrichment score”: -0.0817.
`VSIVQKLDFSDTM [A3I]`: “normalised enrichment score” 0.163.
`VSAVQKLDISDTM [F9I]` — result for “normalised enrichment score”: 0.187.
`VSAVQDLDFSDTM [K6D]` — result for “normalised enrichment score”: 0.124.
For `VSAVQKLDKSDTM [F9K]`, “normalised enrichment score” read 0.403.
`VSAYQKLDFSDTM [V4Y]` — result for “normalised enrichment score”: 0.284.
For `VSAVQHLDFSDTM [K6H]`, “normalised enrichment score” read 0.109.
For `VSNVQKLDFSDTM [A3N]`, “normalised enrichment score” read 0.187.
`WSAVQKLDFSDTM [V1W]` — result for “normalised enrichment score”: 0.0284.

For quick reference, copied from above (set 1):
With `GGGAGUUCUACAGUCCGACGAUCGUUGUACCGAAAGGCAAAGGAGAACAGAUUGCAAGGGAGCAUGGUAUUAGGUUUUUUGAGACCCGUGCAAAAGCAAAUAUAAACAUCGAAAAGGCGUUCCUCACAUUAGCUGAAGACAUCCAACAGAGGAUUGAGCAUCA` the bound/input enrichment was 0.65 ratio.
With `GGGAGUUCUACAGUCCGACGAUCACUAAUGCAGUGAUCGCCGGCUUGAUAGUGUUGGAAGGAUUAAAGAUUUUAUCUGGAAAAACCGACCAGUGUAGAACUAUUUUUUUGAAUAAGCAGCCAAACCCAAGAAAGAAGCUCUUGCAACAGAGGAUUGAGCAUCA` the bound/input enrichment was 1.35 ratio.
For `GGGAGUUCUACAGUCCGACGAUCCGAAGUAAGAAAGCAAACCUAGGCAAGAAUGCAAGUGUGAAUGCGCACCAUGGACCAGCACCCGAAGCUGUGGAGACCACUGUGCCCAAGCAAGGACAAAACUUAUGGUUCCUGUGUGACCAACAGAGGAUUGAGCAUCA`, the bound/input enrichment was 0.195 ratio.
`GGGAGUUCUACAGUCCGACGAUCAGAGACUGGGUCACAAACCCUGGGCUUUUCAAUCAGCCACUGACUUCCCUUCCUGUCAGCCGCAUACCCAUCUAUAAAUUACCAGAGGGAUCACCAACAUGGCUGGGAAUAUCCUGCAGUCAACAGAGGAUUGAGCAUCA` has a bound/input enrichment of 0.314 ratio.
With `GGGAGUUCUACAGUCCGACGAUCACCCAUGCUUUUAUGGACACUAGGUAAACACCUUCAGCUUAAAUUUUUCGUUAAAUAUUUCCGUUUAUUUUAUUGUUAUCUUCCAGGUGUCUAAAUCUCCAGUCUGUCUGUUGUACUGGUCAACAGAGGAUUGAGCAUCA` the bound/input enrichment was 0.866 ratio.
`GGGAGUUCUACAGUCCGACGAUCUCUAAGGAAGCACAGAUAAGAGAAACUGAAACGUUUUCAGAUUCAUCUCCAAUUGAAAUUACCGAUGAGUUCCCUACAUUGAUCAGUUCUAAAACUGAUUCAUUUUCUAAAUUAGCCAGGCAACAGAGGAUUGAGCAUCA` has a bound/input enrichment of 0.556 ratio.
With `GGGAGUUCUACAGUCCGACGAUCUCUCCUAGUAGUGAUCUCACACUUUCAAGUGUUCUCUGGGAUAGAGAGAGAUCAAGCUUUUACCGCCUGACGAGUUCAAACAUCAGUAAAUGGGAAUUAGAUGAUUCUUCAGAAAAGCAUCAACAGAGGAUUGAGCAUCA` the bound/input enrichment was 0.333 ratio.
With `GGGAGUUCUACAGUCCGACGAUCUUUCUUUUUCUUUUUCUUUUUAAAAUGUUAAUGCCCGUUGUCUUUCCUGGGCUGUUUGCCCGCGGAAGGAUGCCAGGGAAGCCAGCAGGAGCUAGGAGAGAGUCCGUGGAUCUCGAAAGACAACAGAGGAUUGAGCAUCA` the bound/input enrichment was 0.257 ratio.
